# Measured values collected from several papers.
# Every numbered part comes from another study and shows a few of its results, in no order. Positions count from the first letter of the parent shown.

# Sample 1
# Target: Histone acetyltransferase KAT6A, both winged helices, GST fusion (KAT6A, Homo sapiens, UniProt Q92794, residues 1-181)
# Method: protein binding microarray
# Form: double-stranded DNA, one strand shown
# Sample: in vitro
# Concentration: not given
# Setting: 8-mer, flanks averaged, mean of 2 arrays, mostly near background
# Relative to: not given
# Direction: higher = stronger binding
# Residues (chain): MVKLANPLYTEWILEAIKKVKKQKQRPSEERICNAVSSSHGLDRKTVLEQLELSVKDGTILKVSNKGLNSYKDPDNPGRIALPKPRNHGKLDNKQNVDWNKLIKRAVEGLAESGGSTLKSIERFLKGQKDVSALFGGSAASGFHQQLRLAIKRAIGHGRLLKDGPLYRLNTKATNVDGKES
Strand,E-score
ATCTTTTC,-0.0878
GGGGTAAA,-0.0142
CCGCACAA,0.171
CATATGGC,0.00626
CGTAATAC,0.0894
ATAGTGGA,-0.16
CTCAGAAA,-0.197
AGTAAAAG,-0.049
AAGTACAT,-0.0185
GCGTATTA,0.0658
CCTCCGAG,-0.068
CCAGGCAA,-0.0878
ACCCAGCT,-0.212
ACAAGCAT,-0.14
AACTATCT,-0.232
GTATCAGA,0.0239
AAGCTGAA,-0.0434
GTAACATA,-0.0112
ACATACAA,0.062
CAAAGGCG,0.0631
CAGTACTG,-0.0343
GAGTGGGC,0.0116

# Sample 2
# Target: CCNB3, cyclin fold, Cln2 fusion (human)
# Method: yeast growth competition, sequencing
# Sample: yeast
# Setting: weak parent motif
# Relative to: not given
# Direction: higher = stronger binding
# Parent: AKAP12 docking peptide (human); GSPLKKLFTSTGL
Variant,normalised enrichment score
GSPLKKLFASTGL [T9A],0.25
GSPLKKLFTSTGA [L13A],0.243
GSALKKLFTSTGL [P3A],0.37
GSPLKKLFTSAGL [T11A],-0.481
GSPLRKLLTSTGL [K5R F8L],0.0474
GSPLAKLFTSTGL [K5A],-0.472
GSPAKKLFTSTGL [L4A],0.201

# Sample 3
# Target: RING finger protein unkempt homolog, zinc fingers 1-6, GST-SBP tag (UNK, Homo sapiens, UniProt Q9C0B0, residues 30-357)
# Method: RNA Bind-n-Seq
# Form: RNA
# Sample: in vitro
# Concentration: not given
# Setting: RNA with constant flanks, human-mouse chimeric sites, ends assumed
# Relative to: input RNA pool
# Direction: higher = stronger binding
# All sequences stand within: GGGAGUUCUACAGUCCGACGAUC … CAACAGAGGAUUGAGCAUCA
# Construct (chain): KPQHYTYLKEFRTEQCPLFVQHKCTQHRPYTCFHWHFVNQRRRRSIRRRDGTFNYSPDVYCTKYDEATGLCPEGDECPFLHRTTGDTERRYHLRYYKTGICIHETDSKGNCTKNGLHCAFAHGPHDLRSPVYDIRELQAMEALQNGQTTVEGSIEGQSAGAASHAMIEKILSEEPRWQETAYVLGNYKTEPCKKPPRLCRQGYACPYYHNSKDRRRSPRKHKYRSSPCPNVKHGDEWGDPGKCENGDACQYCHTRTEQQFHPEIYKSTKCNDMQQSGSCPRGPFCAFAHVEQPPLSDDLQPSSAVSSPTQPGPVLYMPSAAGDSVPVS
Strand,bound/input enrichment [ratio]
CGCUGGCCCAAGCUGAUGGACUCUGAUCUUGAUCUCUUCUCAGGCACGUGUGCCUUCUCUUAGUCCCUGUUUUCGGGAUGUUAUGAACAGUAUCAUGGUGGUUUGAAAGCACCAGCUUUG,0.0922
UAAGUCCUGUGCCAGCACUUCGCUCAUUAUAUUUUAAAUUCUGGACCAAUAGUGUUUAUCUUUAGAAUAUUGUAUCCAAUACUUUGCCUAGUAUGUAACUCACUCUUACUGAUAAUAAAA,6.32
UCUGGCCAUACUCGUGCGUAUGGUGUUUGCUUUGUGGACACUUCACUGGGCAAGUUUUUCAUCGGCCAGUUUUCGGAUGACCGCCACUGUUCCAGAUUUAGGACGCUAGUGGCUCACUAU,0.15
AGCACAACCCCAGCAAAGCUAAGAAAUCCUUGUACAAGUGAACAGAACUGCACCAGCCCAUUUAGCUACAAAAAUGUGCUUAGUCUUACUGACAGAGGAGAGUUUUUUAAUGAACUUGUU,1.51
CUGGCACUGUAUCAGAUAUAUUAAUUUUUUAAUGUAGAUAAAAUUUCAAAAAUGAAUGGCUACUUUACACGUUUAACUAGGGUUUUACUAUAUAUGUGUACAUAUGUAUAUAUAUAUAUA,8.04
AGAUAUUAAGUAUUUUGAAAAAACUCGAACAGAUUUGACAAGGGUAGCCAGCUUGGAGUCUAGCAACUUGCCAAUGUGUUUACCAAUCUGGGGGCUUGUUUUUCUUUCCCUUCCUUAAAU,0.291
GGCUGCUGGUGACUGUCCUGGAGUGGCUGGAGUUCCCGCCGGAGCGCGCGCAGGUUAAUUUUAGAAAAUGCCAAGUAGGAAGUUUGUUGAGGGUGAAGUGGUCAGAGGUCGAUGGCCUGG,5.02

# Sample 4
# Target: Fragile X messenger ribonucleoprotein 1, C-terminal low-complexity region (Fmr1, Mus musculus, UniProt P35922)
# Method: RNA Bind-n-Seq
# Form: RNA
# Sample: in vitro
# Concentration: 200 nM
# Setting: whole 134-nt RNA, ends assumed
# With: 150 mM LiCl
# Relative to: input library
# Direction: higher = stronger binding
# All molecules: 7-deaza-guanosine replaces G
# All sequences stand within: GGGAGUUCUACAGUCCGACGAUC … UGGAAUUCUCGGGUGUCAAGG
Strand,log2 enrichment
GCAGGAAGUAAAAACGAAUGGAAAUGCUUCGGAUAGUGGCAGGGGUGGGGGUUGCUAAGGAAAGGGUGGGAUGGGAGUGGGUAAAGAGUU,1.41
UCAAGUCCUGUGCUACACAUCGUAUGUACCGAAUCGGAAAGGAAAAAGGAAAGGAAAGUAUUAUGUUACGCCGUUCGGAUCUGCACUUCC,-0.582
AGUCCUGUGCUACACAUCGUAUGUACCGAAUCGGGUUUUGGGGUUUUGGGGUUUUGGAAAGUAUUAUGUUACGCCGUUCGGAUCUGCACU,-1.45
GUCCUGUGCUACACAUCGUAUGUACCGAAUCGGGAAAAAAAGGGUGGGUUUUUUUGGGAAAGUAUUAUGUUACGCCGUUCGGAUCUGCAC,-1.6
CUGUGCUACACAUCGUAUGUACCGAAUCGGGGAAAAAGGGGAAAAAAAGGGGUUUUUGGGGAAAGUAUUAUGUUACGCCGUUCGGAUCUG,-0.347
CACAGACAACACGCACCCACACAGACACAGAGGGAAGGGGUUGGGAUGGGGACAGGGUGCACAGCAGGGCGGGAUAGGACCCCAGCCCCU,1.17
UCCUCAAGUCCUGUGCUACACAUCGUAUGUACCGAAUCGGAAAGGUGGAGGAAAGUAUUAUGUUACGCCGUUCGGAUCUGCACUUCCAGC,-1.5
UAGGAGGUGGAUUUUGUUUAUUUUUUUAGCUCAUUUCCAGGGGUGGGAAUUUUUUUUUAAUAUGUGUCAUGAAUAAAGUUGUUUUUGAAA,0.466
CUGUGCUACACAUCGUAUGUACCGAAUCGGGGAAAAAAGGGGAAAAAAGGGGAAAAAAGGGGAAAGUAUUAUGUUACGCCGUUCGGAUCU,1.15
UCCUGUGCUACACAUCGUAUGUACCGAAUCAAAGUGUGUGUGUAAAGUGUGUGUGUAAAAAAGUAUUAUGUUACGCCGUUCGGAUCUGCA,-2.06
AAGUCCUGUGCUACACAUCGUAUGUACCGAAUCGGGGAGGGGAAAAAGGGGUGGGGAAAGUAUUAUGUUACGCCGUUCGGAUCUGCACUU,0.347

# Sample 5
# Target: RNA binding protein fox-1 homolog 2, RRM domain, GST-SBP tag (RBFOX2, Homo sapiens, UniProt O43251-10, residues 100-194)
# Method: RNA Bind-n-Seq
# Form: RNA
# Sample: in vitro
# Concentration: 365 nM
# Setting: natural RNA segment, single round, ends assumed
# Relative to: no-protein control
# Direction: higher = stronger binding
# All sequences stand within: GGGAGUUCUACAGUCCGACGAUC … UGGAAUUCUCGGGUGCCAA
# Construct (chain): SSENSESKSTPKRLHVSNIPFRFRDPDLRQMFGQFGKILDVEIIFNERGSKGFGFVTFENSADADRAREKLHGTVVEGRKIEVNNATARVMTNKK
Strand,RBNS enrichment (R)
GUGAAAGCUGAACAUUACCGAUAAGGCACAGGUUCCUUUUGAACAUGUUUUUCUCACUUAGGUCUCACAAAAGUAUGAUUUUUCUCAAAAGUCCUGUAUUUAUGUAUUUU,0.449
UUGAUGUUUUACAUUCUCCCUUACUGAAAUCUACAUGACAUGAUGCUUCUUGCUGGGUUUUUGUACAUGUAAACAUUGUCAAGCUGUGAAAGAAAAUGGCUGGAGGUGUG,0.72
AUUUGAUGACAAAUGUUUGUAUCCUUACAAAAGACCUUGUAUGUUUACGAAUUCUGCCAUGCAGCGAUUCUUUAAGGAUAGUUUGUUUUAUUUAUCUUGUACAUAUGUAU,0.741
UAGAAAGCCUUUCUAUUUUUUGGUGCGGGAGGGAAGACCUCUCACUUAGGGCAAGAGCCAGGUAUAGUCUCCCUUCCCAGAAUUUGUAACUGAGAAGAUCUUUUCUUUUU,0.52
AAAAAACCAAAGUGAAACACUAAAAAUUCCCUAUAGAUAUAUUCCAGGAAAUAUUUUAAUUGGGCUGAUUUUAAUUAGGCUGUAUCAUUGAUGAUUACUGGAAUCGAUUU,0.609
GGCUCCUCCAGCCGCCCCCAUGGGAAGAGGCCUGGUACCGCCUCACCCACAGAGGUCUGUGCCAGGUGCGCUUCUGCAGGUGGAGCCAAGCUCUCCCUGAGGCCAGAGGC,0.236
CAGAAUUCAUUGAAGAUUUGUUUUGGGACAACUGGAAGAAUCAGCACCAUGGAUACUCGCCCGUGGGCAGGGCUGUGGUCAGCCAAGAAUAGAGGUCAUAUAGUUGGGCC,0.414
UUUACAUUUGAAUGUUCACAGUUUUCUCUCAGAGAAGUGCCAGACAUUGUUUUGUGCUUUUGAAGAAGUUUUAUUUAUAUGCAUUAUUUUUAUUGUUUUUACUUUGACUG,0.439
CUUGGGUUCAUGGAUUAGUUUUGUAUCUAAAACAGGAAACAAGUCAGAUGAUGUGGUUUGUACACUUUCUGUAACCACCAGUGUGGACUUGAAGAAGUGUCCUCAGCAUG,3.37
AGAACCAGACGCCAACUUUGUACUGCAUUUGGGAUCAUAUCUUUCCCCUUCUCUGUCCCCCAUUCUCUGAAUGCUGCUUUCUCUGGCUUGUUUCCUACAGUGGGGGCCUG,0.504
UCCUACCACUUAUUACAACAGUGAGGACUGGAUUCUUGAUGUCUUAAUUUCUCAUUUAUUUGUCUAGAAAAUCCAUAAUGAUAUAGGACAUUUAUACCGAGUGAGAUCAU,0.376
UUUCUACAUCACAGGUCUCUCCCAGGGCUCGUUUUCCAAUCUCCAUCACUAGUCCUUACAGAACAGGAGCCAGAACUCUGGCAGACAUCAAAGCAAAAGCCCAGUUGGUC,0.247

# For quick reference, copied from above (sample 1):
Strand,E-score
GCGTATTA,0.0658
ACATACAA,0.062
AACTATCT,-0.232
CATATGGC,0.00626
ACCCAGCT,-0.212
ATAGTGGA,-0.16
GAGTGGGC,0.0116
